Measurements from different studies.
Numbered parts are unrelated; each lists some results of a single study.
Sequence of UniProt P19784 (whole entry, looked up): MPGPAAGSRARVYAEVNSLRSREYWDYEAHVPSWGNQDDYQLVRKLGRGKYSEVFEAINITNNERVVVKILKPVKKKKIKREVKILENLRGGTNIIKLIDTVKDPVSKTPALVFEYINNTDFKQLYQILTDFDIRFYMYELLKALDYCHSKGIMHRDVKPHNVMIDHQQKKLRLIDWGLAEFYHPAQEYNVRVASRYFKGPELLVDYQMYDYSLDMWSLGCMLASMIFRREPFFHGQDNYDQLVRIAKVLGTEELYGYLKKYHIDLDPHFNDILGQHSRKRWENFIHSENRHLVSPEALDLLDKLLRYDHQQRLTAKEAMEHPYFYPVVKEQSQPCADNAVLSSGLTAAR
Sequence of UniProt P00519 (whole entry, unmodified, looked up): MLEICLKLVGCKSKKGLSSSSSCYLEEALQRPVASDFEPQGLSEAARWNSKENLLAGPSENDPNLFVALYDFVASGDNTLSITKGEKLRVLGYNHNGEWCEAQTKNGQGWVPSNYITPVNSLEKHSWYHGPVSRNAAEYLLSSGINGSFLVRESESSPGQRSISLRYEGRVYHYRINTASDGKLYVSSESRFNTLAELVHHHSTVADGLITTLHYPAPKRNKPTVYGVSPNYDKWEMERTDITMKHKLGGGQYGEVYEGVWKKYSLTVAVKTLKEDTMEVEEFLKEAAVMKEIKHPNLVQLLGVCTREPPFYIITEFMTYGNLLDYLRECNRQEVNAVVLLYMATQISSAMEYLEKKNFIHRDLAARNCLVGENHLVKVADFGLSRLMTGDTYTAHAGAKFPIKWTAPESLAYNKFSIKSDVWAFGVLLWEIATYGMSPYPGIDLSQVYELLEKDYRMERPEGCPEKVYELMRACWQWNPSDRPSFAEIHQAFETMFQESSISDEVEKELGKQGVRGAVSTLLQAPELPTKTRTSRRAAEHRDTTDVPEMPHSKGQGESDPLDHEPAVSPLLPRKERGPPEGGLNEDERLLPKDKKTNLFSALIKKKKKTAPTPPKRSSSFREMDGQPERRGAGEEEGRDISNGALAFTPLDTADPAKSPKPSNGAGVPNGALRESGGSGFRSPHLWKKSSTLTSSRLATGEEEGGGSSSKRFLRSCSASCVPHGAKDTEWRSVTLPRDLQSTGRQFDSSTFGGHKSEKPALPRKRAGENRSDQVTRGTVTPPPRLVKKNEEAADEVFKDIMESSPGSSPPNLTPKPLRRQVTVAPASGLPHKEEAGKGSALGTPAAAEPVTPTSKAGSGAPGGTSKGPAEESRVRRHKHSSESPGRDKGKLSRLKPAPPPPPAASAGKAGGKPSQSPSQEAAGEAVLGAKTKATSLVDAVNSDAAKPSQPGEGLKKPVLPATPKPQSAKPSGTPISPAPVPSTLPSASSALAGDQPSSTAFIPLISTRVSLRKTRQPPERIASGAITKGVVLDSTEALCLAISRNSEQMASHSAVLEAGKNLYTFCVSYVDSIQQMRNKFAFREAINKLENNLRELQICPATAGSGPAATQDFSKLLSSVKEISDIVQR
Sequence of UniProt P36896 (whole entry, looked up): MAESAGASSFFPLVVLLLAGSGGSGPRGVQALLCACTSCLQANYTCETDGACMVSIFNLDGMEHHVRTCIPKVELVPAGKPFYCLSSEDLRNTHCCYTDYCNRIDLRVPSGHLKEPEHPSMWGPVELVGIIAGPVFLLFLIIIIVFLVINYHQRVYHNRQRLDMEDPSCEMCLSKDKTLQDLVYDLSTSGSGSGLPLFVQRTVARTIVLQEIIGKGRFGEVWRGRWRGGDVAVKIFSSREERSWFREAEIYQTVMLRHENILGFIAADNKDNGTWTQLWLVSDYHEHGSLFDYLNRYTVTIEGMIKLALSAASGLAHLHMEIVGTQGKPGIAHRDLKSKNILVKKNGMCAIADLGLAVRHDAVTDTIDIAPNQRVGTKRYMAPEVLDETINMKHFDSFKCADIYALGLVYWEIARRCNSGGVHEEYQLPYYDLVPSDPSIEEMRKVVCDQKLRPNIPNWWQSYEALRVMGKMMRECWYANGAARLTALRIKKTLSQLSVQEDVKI
Sequence of UniProt Q02750 (whole entry, looked up): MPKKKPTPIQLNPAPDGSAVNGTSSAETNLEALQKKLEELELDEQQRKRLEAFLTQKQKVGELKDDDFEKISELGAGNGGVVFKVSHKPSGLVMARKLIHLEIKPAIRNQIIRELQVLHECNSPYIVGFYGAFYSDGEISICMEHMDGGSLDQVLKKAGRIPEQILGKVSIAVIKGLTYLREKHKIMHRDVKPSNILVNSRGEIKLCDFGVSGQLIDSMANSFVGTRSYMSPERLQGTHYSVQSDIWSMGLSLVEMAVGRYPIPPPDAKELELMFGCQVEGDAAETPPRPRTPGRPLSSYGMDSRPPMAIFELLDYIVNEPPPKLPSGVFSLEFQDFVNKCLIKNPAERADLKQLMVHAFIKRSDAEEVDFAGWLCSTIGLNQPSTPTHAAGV

Series 1
Target: DNA polymerase theta, ATPase domain (POLQ, Homo sapiens, UniProt O75417)
Sequence of UniProt O75417 (whole entry, unmodified, looked up): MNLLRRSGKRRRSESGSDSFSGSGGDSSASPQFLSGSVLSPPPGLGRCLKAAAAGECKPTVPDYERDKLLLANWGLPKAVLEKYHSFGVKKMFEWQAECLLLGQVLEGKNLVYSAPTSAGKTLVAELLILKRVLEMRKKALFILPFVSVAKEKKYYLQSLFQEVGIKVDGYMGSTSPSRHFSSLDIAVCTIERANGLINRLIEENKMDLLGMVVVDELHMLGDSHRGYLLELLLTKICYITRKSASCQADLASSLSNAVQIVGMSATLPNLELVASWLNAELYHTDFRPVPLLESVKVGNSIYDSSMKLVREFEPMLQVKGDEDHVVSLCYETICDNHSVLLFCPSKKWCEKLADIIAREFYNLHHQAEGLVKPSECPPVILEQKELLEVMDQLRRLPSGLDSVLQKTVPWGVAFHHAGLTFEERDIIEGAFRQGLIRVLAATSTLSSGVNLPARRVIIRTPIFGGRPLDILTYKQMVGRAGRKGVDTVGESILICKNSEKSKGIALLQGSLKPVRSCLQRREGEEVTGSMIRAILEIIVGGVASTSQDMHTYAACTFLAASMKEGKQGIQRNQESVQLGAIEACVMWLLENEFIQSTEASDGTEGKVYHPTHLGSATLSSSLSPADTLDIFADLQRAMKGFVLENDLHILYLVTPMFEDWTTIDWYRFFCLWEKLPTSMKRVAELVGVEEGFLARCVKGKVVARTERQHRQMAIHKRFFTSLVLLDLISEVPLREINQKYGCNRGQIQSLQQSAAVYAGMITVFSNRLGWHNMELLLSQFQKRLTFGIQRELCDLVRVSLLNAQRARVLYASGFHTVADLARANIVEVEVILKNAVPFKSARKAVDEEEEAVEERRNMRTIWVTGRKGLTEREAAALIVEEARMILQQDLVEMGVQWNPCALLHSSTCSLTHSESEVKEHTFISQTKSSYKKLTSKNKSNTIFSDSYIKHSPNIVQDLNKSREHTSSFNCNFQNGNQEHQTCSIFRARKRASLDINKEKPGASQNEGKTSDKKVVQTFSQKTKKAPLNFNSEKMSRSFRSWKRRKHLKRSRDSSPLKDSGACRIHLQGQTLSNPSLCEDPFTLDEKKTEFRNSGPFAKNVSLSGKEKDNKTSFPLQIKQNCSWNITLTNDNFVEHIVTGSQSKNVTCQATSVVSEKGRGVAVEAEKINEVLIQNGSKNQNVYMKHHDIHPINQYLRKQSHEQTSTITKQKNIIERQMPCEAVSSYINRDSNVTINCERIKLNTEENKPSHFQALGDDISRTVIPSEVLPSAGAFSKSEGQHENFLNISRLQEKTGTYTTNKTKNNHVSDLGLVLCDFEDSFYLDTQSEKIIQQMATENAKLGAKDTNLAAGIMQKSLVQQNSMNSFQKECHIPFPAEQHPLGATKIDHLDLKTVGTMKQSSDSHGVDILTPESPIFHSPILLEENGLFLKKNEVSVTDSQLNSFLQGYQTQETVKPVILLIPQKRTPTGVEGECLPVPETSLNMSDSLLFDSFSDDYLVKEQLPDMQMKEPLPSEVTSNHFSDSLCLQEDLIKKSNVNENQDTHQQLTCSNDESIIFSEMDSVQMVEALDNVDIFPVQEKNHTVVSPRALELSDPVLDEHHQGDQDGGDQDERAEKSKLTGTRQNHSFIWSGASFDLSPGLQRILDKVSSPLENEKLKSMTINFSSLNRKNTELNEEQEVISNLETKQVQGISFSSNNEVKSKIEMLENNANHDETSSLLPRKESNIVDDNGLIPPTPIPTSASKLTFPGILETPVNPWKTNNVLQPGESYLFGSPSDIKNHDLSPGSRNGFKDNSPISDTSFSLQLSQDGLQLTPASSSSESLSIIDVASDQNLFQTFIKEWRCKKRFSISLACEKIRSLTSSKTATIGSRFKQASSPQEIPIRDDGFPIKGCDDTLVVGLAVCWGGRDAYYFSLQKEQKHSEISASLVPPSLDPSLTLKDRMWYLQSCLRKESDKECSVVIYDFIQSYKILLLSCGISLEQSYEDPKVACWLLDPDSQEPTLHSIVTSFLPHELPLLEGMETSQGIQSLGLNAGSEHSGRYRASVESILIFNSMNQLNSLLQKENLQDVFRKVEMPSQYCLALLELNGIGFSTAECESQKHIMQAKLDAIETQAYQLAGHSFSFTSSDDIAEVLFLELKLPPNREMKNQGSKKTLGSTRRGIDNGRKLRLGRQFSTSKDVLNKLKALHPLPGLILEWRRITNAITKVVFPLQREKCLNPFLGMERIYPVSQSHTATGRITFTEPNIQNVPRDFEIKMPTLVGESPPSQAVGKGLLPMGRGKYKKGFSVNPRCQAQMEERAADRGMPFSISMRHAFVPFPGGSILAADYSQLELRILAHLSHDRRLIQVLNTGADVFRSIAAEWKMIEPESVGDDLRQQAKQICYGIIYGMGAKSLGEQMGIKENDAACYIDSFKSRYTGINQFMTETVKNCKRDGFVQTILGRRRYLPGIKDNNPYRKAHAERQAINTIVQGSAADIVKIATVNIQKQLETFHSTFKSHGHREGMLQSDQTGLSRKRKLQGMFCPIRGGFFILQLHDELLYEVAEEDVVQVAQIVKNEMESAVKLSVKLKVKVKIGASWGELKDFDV
Read-out: enzyme activity
Mode: inhibitor
Tested at: 77 µM
Relative to: untreated
Endpoint: remaining activity
CC[C@H]1OC(=O)[C@H](C)[C@@H](O[C@H]2C[C@@](C)(OC)[C@@H](O)[C@H](C)O2)[C@H](C)[C@@H](O[C@@H]2O[C@H](C)C[C@H](N(C)C)[C@H]2O)[C@](C)(O)C[C@@H](C)CN(C)[C@H](C)[C@@H](O)[C@]1(C)O: 101%
CCN1C(=O)NC(c2ccccc2)C1=O (centres unmarked): 104%
NC(=O)c1ncn([C@@H]2O[C@H](CO)[C@@H](O)[C@H]2O)c1N: 91.5%
O=c1[nH]c(=O)n([C@H]2C[C@H](O)[C@@H](CO)O2)cc1I: 109%
CNC(=O)[C@H]1O[C@@H](n2cnc3c(NCc4ccc(N)cc4)ncnc32)[C@H](O)[C@@H]1O: 97.9%
CN(NC(=O)CC(=O)NN(C)C(=S)c1ccccc1)C(=S)c1ccccc1: 92.4%
OCc1ccc(O[C@@H]2O[C@H](CO)[C@@H](O)[C@H](O)[C@H]2O)cc1: 99.8%
CSc1nc2cc(Cl)c(Oc3cccc(Cl)c3Cl)cc2[nH]1: 96.2%
N[C@@H](Cc1c[nH]c2ccccc12)C(=O)O: 96.4%
CCN(CC)CCCCCCCCOC(=O)c1cc(OC)c(OC)c(OC)c1: 88.5%

Series 2
Compound: CN(C)CC#Cc1ccc(OCCCc2sc(N3CCc4cccc(C(=O)Nc5nc6ccccc6s5)c4C3)nc2C(=O)O)c(F)c1
Technique: competition with immobilised ligand
Tested at: 1 µM
Endpoint: remaining binding
Tyrosine-protein kinase ABL1, non-phosphorylated (ABL1, Homo sapiens, UniProt P00519, F317L); cell-free assay: 100%
FLT3 (Homo sapiens, UniProt P36888, D835H); cell-free assay: 93%
CDK13 (Homo sapiens, UniProt Q14004); cell-free assay: 100%
ACVR1B (Homo sapiens, UniProt P36896); cell-free assay: 100%
PIK3CA (Homo sapiens, UniProt P42336, E542K); cell-free assay: 72%
TXK (Homo sapiens, UniProt P42681); binding: 100%
Receptor-type tyrosine-protein kinase FLT3, autoinhibited (FLT3, Homo sapiens, UniProt P36888); cell-free assay: 95%
EGFR (Homo sapiens, UniProt P00533, L858R); cell-free assay: 89%
EPHA8 (Homo sapiens, UniProt P29322); cell-free assay: 100%
MARK4 (Homo sapiens, UniProt Q96L34); cell-free assay: 76%
CSNK2A2 (Homo sapiens, UniProt P19784); cell-free assay: 100%
MAP2K1 (Homo sapiens, UniProt Q02750); cell-free assay: 100%
STK36 (Homo sapiens, UniProt Q9NRP7); cell-free assay: 99%
Ribosomal protein S6 kinase alpha-6, C-terminal kinase domain (RPS6KA6, Homo sapiens, UniProt Q9UK32); cell-free assay: 97%
SIK2 (Homo sapiens, UniProt Q9H0K1); cell-free assay: 96%

Series 3
Target: Serine/threonine-protein kinase Nek1 (NEK1, Homo sapiens, UniProt Q96PY6)
Read-out: enzyme activity
Mode: inhibitor
Tested at: 0.5 µM
Relative to: control
Endpoint: remaining activity
Target sequence (Q96PY6 1-1258): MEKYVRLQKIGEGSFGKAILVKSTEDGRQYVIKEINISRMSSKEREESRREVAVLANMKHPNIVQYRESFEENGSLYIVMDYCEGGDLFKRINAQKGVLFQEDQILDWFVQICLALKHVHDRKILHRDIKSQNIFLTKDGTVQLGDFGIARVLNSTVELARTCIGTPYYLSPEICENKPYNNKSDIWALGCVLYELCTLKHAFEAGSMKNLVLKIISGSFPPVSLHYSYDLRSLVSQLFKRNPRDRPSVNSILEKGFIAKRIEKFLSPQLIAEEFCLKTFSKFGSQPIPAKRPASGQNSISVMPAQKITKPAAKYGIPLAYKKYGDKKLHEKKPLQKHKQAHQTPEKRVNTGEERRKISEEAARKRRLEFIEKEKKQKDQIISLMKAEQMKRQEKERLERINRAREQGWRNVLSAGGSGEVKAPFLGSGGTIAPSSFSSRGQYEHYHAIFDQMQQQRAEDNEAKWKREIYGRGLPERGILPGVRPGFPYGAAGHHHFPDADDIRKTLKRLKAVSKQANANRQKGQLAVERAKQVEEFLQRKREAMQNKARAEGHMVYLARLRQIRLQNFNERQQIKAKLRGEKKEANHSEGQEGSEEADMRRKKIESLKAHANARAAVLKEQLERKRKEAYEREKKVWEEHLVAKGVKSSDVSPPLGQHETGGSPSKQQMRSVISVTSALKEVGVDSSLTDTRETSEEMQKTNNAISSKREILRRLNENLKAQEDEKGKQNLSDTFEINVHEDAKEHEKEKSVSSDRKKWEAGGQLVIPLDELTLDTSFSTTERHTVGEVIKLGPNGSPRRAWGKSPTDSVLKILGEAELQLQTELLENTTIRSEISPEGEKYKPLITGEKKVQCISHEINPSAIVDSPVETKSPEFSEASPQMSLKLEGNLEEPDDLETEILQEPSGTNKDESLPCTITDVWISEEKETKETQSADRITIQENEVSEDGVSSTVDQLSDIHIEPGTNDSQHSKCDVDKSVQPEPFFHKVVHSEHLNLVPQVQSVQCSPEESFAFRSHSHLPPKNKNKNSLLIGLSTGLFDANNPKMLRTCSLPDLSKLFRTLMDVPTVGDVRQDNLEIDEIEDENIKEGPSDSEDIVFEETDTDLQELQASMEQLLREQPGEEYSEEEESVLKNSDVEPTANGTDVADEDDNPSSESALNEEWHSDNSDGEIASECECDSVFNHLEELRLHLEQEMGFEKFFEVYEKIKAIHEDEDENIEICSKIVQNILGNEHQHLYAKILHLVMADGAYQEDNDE
NCCNc1ncc(C(N)=O)c(Nc2cccc(C(F)(F)F)c2)n1: 94.5%
CCOC(=O)c1c(C)[nH]c(/C=C2\C(=O)Nc3ccccc32)c1C: 92.5%
Oc1ccc(-c2nc(-c3ccncc3)c(-c3ccc(F)cc3)[nH]2)cc1: 98.9%
CNC(=O)c1cc(Oc2ccc(NC(=O)Nc3ccc(Cl)c(C(F)(F)F)c3)cc2)ccn1: 88.8%
C#Cc1cccc(Nc2ncnc3cc(OCCOC)c(OCCOC)cc23)c1: 73.8%
COc1ccc(C(=O)Nc2sc3c(c2C(N)=O)CCCC3)cc1OC: 89.8%
Nc1[nH]nc2nc3ccccc3nc12: 91.7%
Cn1c2ccccc2c2c3c(c4c5ccccc5n(CCC#N)c4c21)CNC3=O: 62.9%
CN(C)c1ccc(C=C2C(=O)Nc3ccccc32)cc1: 112%
Nc1ncnc2n[nH]c(Nc3ccc(F)cc3)c12: 94%
N#CC(C#N)=C(N)/C(C#N)=C/c1ccc(O)cc1: 95.7%
CC(C)[C@H](CO)Nc1nc(Nc2cc(N)cc(Cl)c2)c2ncn(C(C)C)c2n1: 81.5%
Cn1sc(=O)n(Cc2ccccc2)c1=O: 102%
O=C1NC(=O)C(c2cn(CCCO)c3ncccc23)=C1c1cnccn1: 91.9%
Cc1cccc(-c2[nH]c(C(C)(C)C)nc2-c2ccc3c(c2)OCO3)n1: 78.9%

Series 4
Cell line: A-375
Tested at: 100 µM
Time: 18 h
Endpoint: viability
COc1nc(C)nc(Cl)c1N=C1NCCN1: 103%
C/C(=C(\CCOP(=O)(O)O)SC(=O)c1ccccc1)N(C=O)Cc1cnc(C)nc1N: 93.7%
O=C(Nc1ncc([N+](=O)[O-])s1)c1ccccc1O: 56.7%
Nc1cccc2c1CN(C1CCC(=O)NC1=O)C2=O (centres unmarked): 101%
C#C[C@]1(O)CC[C@H]2[C@@H]3CCc4cc(OC)ccc4[C@H]3CC[C@@]21C: 18.7%
CC1=C(/C=C/C(C)=C/C=C/C(C)=C/C=C/C=C(C)/C=C/C=C(C)/C=C/C2=C(C)C(=O)[C@@H](O)CC2(C)C)C(C)(C)C[C@H](O)C1=O: 94.8%
O=C(/C=C/c1ccc(O)c2c1[C@H](C(=O)O[C@H](Cc1ccc(O)c(O)c1)C(=O)O)[C@@H](c1ccc(O)c(O)c1)O2)O[C@H](Cc1ccc(O)c(O)c1)C(=O)O: 120%
COC(=O)C1=C(C)NC(C)=C(C(=O)OC(C)C)C1c1cccc2nonc12 (centres unmarked): 42.2%
C=C1[C@H](CO)[C@@H](O)C[C@@H]1n1cnc2c(=O)[nH]c(N)nc21: 97.8%
CC(C)c1cc2c(cc1S(=O)(=O)O)[C@@]1(C)CCC[C@@](C)(C(=O)O)[C@@H]1CC2: 82.3%

Excerpt of the above (series 3):
CCOC(=O)c1c(C)[nH]c(/C=C2\C(=O)Nc3ccccc32)c1C: 92.5%
Oc1ccc(-c2nc(-c3ccncc3)c(-c3ccc(F)cc3)[nH]2)cc1: 98.9%
CNC(=O)c1cc(Oc2ccc(NC(=O)Nc3ccc(Cl)c(C(F)(F)F)c3)cc2)ccn1: 88.8%
C#Cc1cccc(Nc2ncnc3cc(OCCOC)c(OCCOC)cc23)c1: 73.8%
COc1ccc(C(=O)Nc2sc3c(c2C(N)=O)CCCC3)cc1OC: 89.8%
